Measurements collected from several papers.
Each numbered part is a random draw from the data of one study; scales do not carry over between parts.
Chain of UniProt O15294 (whole entry, looked up): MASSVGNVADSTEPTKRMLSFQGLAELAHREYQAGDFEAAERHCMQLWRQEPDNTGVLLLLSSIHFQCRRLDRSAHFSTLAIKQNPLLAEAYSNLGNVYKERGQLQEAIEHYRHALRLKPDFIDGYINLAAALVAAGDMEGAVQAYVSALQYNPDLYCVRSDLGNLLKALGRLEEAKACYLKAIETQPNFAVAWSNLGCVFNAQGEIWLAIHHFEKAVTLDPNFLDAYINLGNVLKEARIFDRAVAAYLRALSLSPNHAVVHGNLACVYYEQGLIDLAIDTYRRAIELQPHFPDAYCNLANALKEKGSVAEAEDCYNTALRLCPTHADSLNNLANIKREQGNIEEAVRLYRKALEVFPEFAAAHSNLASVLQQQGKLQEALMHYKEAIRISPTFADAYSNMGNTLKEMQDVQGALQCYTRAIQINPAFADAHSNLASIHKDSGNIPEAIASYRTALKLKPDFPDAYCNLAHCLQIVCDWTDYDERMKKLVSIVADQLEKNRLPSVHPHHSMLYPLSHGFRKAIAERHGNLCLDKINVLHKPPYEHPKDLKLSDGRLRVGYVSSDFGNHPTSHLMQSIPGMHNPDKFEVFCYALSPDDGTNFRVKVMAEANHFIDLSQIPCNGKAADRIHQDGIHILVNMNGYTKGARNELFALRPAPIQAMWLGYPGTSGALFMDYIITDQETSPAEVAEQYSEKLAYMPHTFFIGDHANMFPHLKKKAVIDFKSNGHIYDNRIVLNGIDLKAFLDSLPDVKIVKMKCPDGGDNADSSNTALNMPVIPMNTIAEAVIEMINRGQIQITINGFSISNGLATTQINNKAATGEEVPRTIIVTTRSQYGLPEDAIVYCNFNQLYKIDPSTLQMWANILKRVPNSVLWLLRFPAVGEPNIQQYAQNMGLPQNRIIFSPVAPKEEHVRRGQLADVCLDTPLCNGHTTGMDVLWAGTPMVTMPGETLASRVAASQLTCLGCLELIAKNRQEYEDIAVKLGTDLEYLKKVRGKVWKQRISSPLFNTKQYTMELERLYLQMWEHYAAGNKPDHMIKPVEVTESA

Series 1
Target: Interferon regulatory factor 5, full length, phosphomimetic (IRF5, Homo sapiens, UniProt Q13568-2, residues 1-514, S451D/S453D/S456D/S462D)
Method: protein-binding microarray
Molecule type: double-stranded DNA, one strand shown
Sample: in vitro
Tested at: 940 nM top
Setting: 60-bp whole probe
Added: salmon DNA 0.4 mg/ml
Relative to: random background probes
Direction: higher = stronger binding
Quantity: fitted relative affinity
Constant ends, left off below: GCCTAGCAC … GTCTTGATTCGCTTGACGCTGCTG
Strand = TCAGTTCTCAGACTGGGACTGTGCTAG; result = 0.346 z-score
Strand = GACGATATCAGTCTCGAGTCGTGCTAG; result = 2.18 z-score
Strand = TCATTTGTCACTCTCAGACTGTGCTAG; result = 0.956 z-score
Strand = GACGCTTTCGGGTATCGGGACGTGCTA; result = 3.57 z-score
Strand = GACGGTTTCCTTATCCTTACGTGCTAG; result = 1.58 z-score
Strand = TCTTTTTGCTTTCTTTATGCGTGCTAG; result = 2.38 z-score
Strand = GACGAACTGCTTATCCTGACGTGCTAG; result = 0.109 z-score
Strand = CTCTCCATGTGTTTAAAAAGGTGCTAG; result = 0.516 z-score

Series 2
Target: Max dimerization protein 1, bHLH-zipper, MAX partner unstated (MXD1, Homo sapiens, UniProt Q05195, residues 56-136)
Method: protein-binding microarray
Molecule type: double-stranded DNA, one strand shown
Sample: in vitro
Tested at: not given
Setting: k-mer, scored over probes, only values ≥0.25
Direction: higher = stronger binding
Quantity: E-score
Target sequence (chain): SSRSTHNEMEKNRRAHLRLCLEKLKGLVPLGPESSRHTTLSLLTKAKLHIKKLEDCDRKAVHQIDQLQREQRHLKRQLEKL
Strand = CAGCCATG; result = 0.261
Strand = CCACGTCA; result = 0.255
Strand = AGACGCAT; result = 0.271
Strand = ACATGTGG; result = 0.466
Strand = CATGCGAC; result = 0.371
Strand = ATGGGTGC; result = 0.282
Strand = GAGGGGAA; result = 0.258
Strand = ATGAGGGA; result = 0.275

Series 3
Cell line: yeast with cyclin F-Cln2 chimera
Read-out: cell growth
Action: binder
Method: competitive growth deep sequencing
Molecule type: peptide
Tested at: concentration not given
Setting: peptide tiling library
Direction: direction not given
Quantity: growth enrichment score
Sequence = AEHPKPSACRNLFGPV; result = 4.56
Sequence = SDSTVTKLDFDLEP; result = -0.0183
Sequence = NNIRKALSFDNRGEEH; result = 1.13
Sequence = QNPCGSKACRRLFGPV; result = 3.89
Sequence = LENIEPLQVSFAVLSS; result = -0.565
Sequence = SGYLTDENEVGFRG; result = -0.0956
Sequence = PQWPCGKHKRVLIFAS; result = 1.34
Sequence = NFETPEAETPIRSPFK; result = -0.407

Further values, each from its own experiment
Sequence = SRQHHHYVQAMPYRD; target = UDP-N-acetylglucosamine--peptide N-acetylglucosaminyltransferase 110 kDa subunit (OGT, Homo sapiens, UniProt O15294); read-out = binding; method = phage display NGS; molecule type = peptide; relative to = input library; quantity = minimum log2 enrichment ratio; result = 1.25

For quick reference, copied from above (series 3):
Sequence = AEHPKPSACRNLFGPV; result = 4.56
Sequence = LENIEPLQVSFAVLSS; result = -0.565
Sequence = NNIRKALSFDNRGEEH; result = 1.13
Sequence = NFETPEAETPIRSPFK; result = -0.407
